{"data": "Measurements of several laboratories", "note": "A part holds a random share of what one study measured. Substitutions count along the parent as printed."}
{"data": "Set 1", "target": "RING finger protein unkempt homolog, zinc fingers 1-6, GST-SBP tag (UNK, Homo sapiens, UniProt Q9C0B0, residues 30-357)", "method": "RNA Bind-n-Seq", "molecule type": "RNA", "sample": "in vitro", "concentration": "not given", "notes": "RNA with constant flanks, human and mouse sites, ends assumed", "baseline": "input RNA pool", "reading": "higher = stronger binding", "shared flanks, not repeated": "GGGAGUUCUACAGUCCGACGAUC … CAACAGAGGAUUGAGCAUCA", "chain of UniProt Q9C0B0 (30-357, looked up)": "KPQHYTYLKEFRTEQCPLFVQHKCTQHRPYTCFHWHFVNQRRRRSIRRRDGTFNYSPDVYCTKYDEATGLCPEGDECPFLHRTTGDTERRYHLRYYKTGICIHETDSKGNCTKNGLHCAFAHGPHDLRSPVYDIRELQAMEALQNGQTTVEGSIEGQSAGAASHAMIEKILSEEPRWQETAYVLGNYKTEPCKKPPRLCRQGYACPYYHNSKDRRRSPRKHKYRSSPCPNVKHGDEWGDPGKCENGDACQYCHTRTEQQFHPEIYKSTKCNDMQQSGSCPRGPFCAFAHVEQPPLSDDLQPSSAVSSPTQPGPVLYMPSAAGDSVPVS"}
{"Strand": "GCAUCCACUGCUACAGCUGAACAGUUUUUUCAGAAGCUGAGAAAUAAACAUGAAUUUACUAUUUUGGUGACCCUAAAACAGACCCACUUAAAUUCAGGAGUUAUUCUCUCAAUUCACCAC", "bound/input enrichment [ratio]": 0.166}
{"Strand": "GGACCAUAAUCAUGGUGGACAUGAUGGACUUGCCCAGGUCGCGCAUCAACGCCGGCAUGCUAGCUCAAUUCAUCGACAAGCCUGUCUGCUUCGUAGGGAGGCUGGAAAAGAUUCAUCCCA", "bound/input enrichment [ratio]": 0.104}
{"Strand": "AAUACAUCAUCAUCUUUGGAGAAUUUAGCGACGGCGCCUGUGAACCAGAUCCAAGAAACAAUUUCUGAUAAUUGUGUGGUGAUUUUCUCAAAAACAUCCUGUUCUUACUGUACAAUGGCA", "bound/input enrichment [ratio]": 0.185}
{"Strand": "AGUUGAUAGUUUCACUCCCAAGCAAUGAAUUGCUUCUGUGUGUUUCCCUGUAGGACUCAAUAGUAAAUGCUGUCUGUCUUACACAUUUAUAAGGACCCUGCAAGACGACGACAAAGGCCU", "bound/input enrichment [ratio]": 0.59}
{"Strand": "GACCUAAUCCAGGAUGUUGAAUGGGAUUAUUGCCAUCUUACACCAUAUUUUUGUAAAAUGUAGCUUAAUCAUAAUCUCACAAUGAAGAUUUUGCAUCACUUUUGCUAUUAUCAUUCUUUU", "bound/input enrichment [ratio]": 0.143}
{"Strand": "GUUUCUGUUCUGUUUUUCAUUUCUAGGAAAAUACACCUUUAAUGUCAUAUUUUCUAAUCUAAAUUCUUGUACCAUCUUCUUUGGAAACGAUUAAAGUACUACUCAUUUUAUGCUUGACUC", "bound/input enrichment [ratio]": 1.2}
{"Strand": "GAAUGGAAGAAUAUGGGUUAAGGCAAAAACCAUCCAGCAGACUUUAAUUUUGGCAAACAUUUUAGAAGCUUGUGAACACAUGACGUCAGAUCAAAGAAAACAGAUCUUCUCCAGAUUGGC", "bound/input enrichment [ratio]": 0.286}
{"Strand": "GAAGCUUUUGCAAAGAUCCGAUUGGUCCUGGAAGUGCUCCAGAAACAGCUUCUAGAUUUGCCUCUUGAUGCUGACCUAGAAAUUGGAAAAGUCCCUGGGAUCGUGUUGGCUGAGAUGCUU", "bound/input enrichment [ratio]": 1.01}
{"data": "Set 2", "target": "RNA binding protein fox-1 homolog 2, RRM domain, GST-SBP tag (RBFOX2, Homo sapiens, UniProt O43251-10, residues 100-194)", "method": "RNA Bind-n-Seq", "molecule type": "RNA", "sample": "in vitro", "concentration": "365 nM", "notes": "natural RNA segment, single round, ends assumed", "baseline": "no-protein control", "reading": "higher = stronger binding", "shared flanks, not repeated": "GGGAGUUCUACAGUCCGACGAUC … UGGAAUUCUCGGGUGCCAA", "Residues (chain)": "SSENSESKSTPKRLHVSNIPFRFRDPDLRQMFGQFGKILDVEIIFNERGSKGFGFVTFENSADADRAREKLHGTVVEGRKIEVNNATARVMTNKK"}
{"Strand": "CACCACACCUGGCUAAUUUUUGUAUUUUAGUAGAGAUGGGGUUUCACCAUGUUGGCCAGGCUCGUCUCGAACUCCUGACUUCAGGUGAUCCACCCAUCUCAGCCUCCCAA", "RBNS enrichment (R)": 0.251}
{"Strand": "GUGAAAGAAAAGCACAACAAAACUAGGGUUUUUUGUUCAUUUGCUUGCUUUUAUGAUUUUUUUUGGUUUGUUUUAAUAUCAGGUGGAUUUUUGUUUCUAAGCAAUAUAUA", "RBNS enrichment (R)": 0.937}
{"Strand": "GCUUCAAGAUGGCACCAGCUCUUUGGGCCUAGGAUACUGCCGGGCCCCCCAAGGGGGUCCCCAGCAACCAGGCCUGGCCUCCUGGUGUCUGCGGUCACAGUGGCCCCUGG", "RBNS enrichment (R)": 0.218}
{"Strand": "UCUCUAUGACCAGGCACUUAAACAUAAUUUAAAAGUCCUUGUAGCUUCAGAACCGGAUAAGUUCCAGUUGCAUAUCUCUAUAUCUCCUGGUUUCCCUCUUGGUUUUCCCC", "RBNS enrichment (R)": 0.27}
{"Strand": "GUCCAUUCUAAACGCAGUUGCCAGUCUCAUCACUUCAGGUCCUUACGGGCAGGCUCUAGCAACUUUCCGUGUAUGGACCUCGUUUUUUGCUGUUUUGUGUUUAAUUAGUA", "RBNS enrichment (R)": 0.303}
{"Strand": "GUAGCACAUGGUUUAAAUAUGAAUGACUGAACUUGUGAUCUAGUCCUUGUCUGGUAAUUGUGGAUUAAUGUCAGCGUUAAUCAGCCCCUCAAAGGGAGAGAAAAGCUGGG", "RBNS enrichment (R)": 2.68}
{"Strand": "GCCAGUGCACGGACCGAUUUGUAUCUGCUCAAUCUCUGUUGCACCUGAGGGGGAAAAAACAGUUCAACUGCUUACUCCCAAAACAGCCUUUUUGUAAUUUAUUUUUUAAG", "RBNS enrichment (R)": 1.05}
{"Strand": "AAACAAUACUUUUUGUAUUAUCUAGAGUCAGCCCACUUCAACAGAUUUUUCUCUCACUAACUGAAAGUGUGUUGAGUCUCUACUUUCUGUCAGUCGUGUAUUAUACUAAG", "RBNS enrichment (R)": 0.311}
{"data": "Set 3", "target": "ABI1, truncated, D143A, DHFR fusion (Arabidopsis thaliana)", "method": "DHFR PCA, deep sequencing", "sample": "yeast", "notes": "methotrexate growth selection, single substitutions", "with": "(+)-ABA 0.11 µM", "baseline": "wild-type fitted maximum", "reading": "higher = stronger binding", "parent": "PYL1, truncated, DHFR fusion (Arabidopsis thaliana); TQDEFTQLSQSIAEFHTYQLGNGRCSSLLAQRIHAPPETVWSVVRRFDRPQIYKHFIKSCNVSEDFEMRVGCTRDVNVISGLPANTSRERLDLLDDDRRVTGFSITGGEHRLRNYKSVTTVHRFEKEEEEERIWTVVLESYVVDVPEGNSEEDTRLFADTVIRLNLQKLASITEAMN"}
{"Change": "V76H", "relative binding score [%]": -2.12}
{"Change": "I79R", "relative binding score [%]": 1.9}
{"Change": "R24G", "relative binding score [%]": 2.74}
{"Change": "T173F", "relative binding score [%]": -6.26}
{"Change": "F47K", "relative binding score [%]": -6.02}
{"Change": "D95W", "relative binding score [%]": -11}
{"Change": "I105Q", "relative binding score [%]": -3.49}
{"Change": "V137L", "relative binding score [%]": -7.07}
{"Change": "S42G", "relative binding score [%]": 21.5}
{"Change": "R155H", "relative binding score [%]": -3.33}
{"Change": "S11E", "relative binding score [%]": 52.3}
{"Change": "S150A", "relative binding score [%]": 10.3}
{"Change": "S59A", "relative binding score [%]": 13.5}
{"Change": "I52N", "relative binding score [%]": 9.46}
{"Change": "D65K", "relative binding score [%]": 20.4}
{"Change": "E67D", "relative binding score [%]": 32.6}
{"Change": "E4T", "relative binding score [%]": 19.9}
{"Change": "Q31F", "relative binding score [%]": -2.13}
{"Change": "T173K", "relative binding score [%]": -0.992}
{"Change": "G102K", "relative binding score [%]": -2.7}
{"Change": "V145T", "relative binding score [%]": 2.05}
{"data": "Set 4", "target": "Histone acetyltransferase KAT6A, winged helix 2, GST fusion (KAT6A, Homo sapiens, UniProt Q92794, residues 85-181)", "method": "protein binding microarray", "molecule type": "double-stranded DNA, one strand shown", "sample": "in vitro", "concentration": "not given", "notes": "8-mer, flanks averaged, mean of 2 arrays, mostly near background", "baseline": "not given", "reading": "higher = stronger binding", "Construct (chain)": "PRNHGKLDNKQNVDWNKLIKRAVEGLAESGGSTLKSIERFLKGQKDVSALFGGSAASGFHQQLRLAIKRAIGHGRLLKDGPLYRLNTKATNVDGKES"}
{"Strand": "CGTAATTA", "E-score": -0.0953}
{"Strand": "AGCGCTCG", "E-score": -0.0191}
{"Strand": "CTCGTAAC", "E-score": -0.144}
{"Strand": "ACCTGCAG", "E-score": 0.0507}
{"Strand": "GTCTAAGA", "E-score": 0.0826}
{"Strand": "TGAACGAA", "E-score": 0.00839}
{"Strand": "ATTGCACC", "E-score": -0.00334}
{"Strand": "ATGCCGCC", "E-score": 0.126}
{"Strand": "CTTTGCGC", "E-score": 0.158}
{"Strand": "CCTTACAG", "E-score": -0.0618}
{"Strand": "ACCGCCTG", "E-score": 0.166}
{"Strand": "CTTCGAAG", "E-score": 0.0989}
{"Strand": "CTCCTTTC", "E-score": -0.0401}
{"Strand": "GGTATTTA", "E-score": -0.129}
{"Strand": "ACTTCCCA", "E-score": -0.0144}
{"Strand": "AACCTATG", "E-score": -0.0297}
{"Strand": "GACAACTA", "E-score": -0.0784}
{"Strand": "CTTCAGCC", "E-score": 0.0112}
{"Strand": "ACCGCAAA", "E-score": 0.19}
{"Strand": "AAATATTA", "E-score": 0.0123}
